Literature values as cited in several papers.
Each line is one published result; not all experiments were run side by side. In brackets after ≈: the same amount, converted by molar mass.

| SMILES | target or system | assay | test system | conditions | how to read | quantity | result |
| --- | --- | --- | --- | --- | --- | --- | --- |
| Cc1ccc(NC2CNC2)cc1C(=O)N[C@H](C)c1cccc(-c2ccc(CNC3CCCC3)s2)c1 | SARS-CoV-2 | viral replication | A549 | – | – | EC50 | 1400 nM |
| CC[C@H](C)[C@H](NC(=O)[C@H](CCCNC(=N)N)NC(=O)[C@@H](NC(=O)[C@@H]1CCCN1C(=O)[C@H](CCCNC(=N)N)NC(=O)[C@@H](NC(=O)[C@@H]1CCCN1C(=O)[C@H](CC(C)C)NC(=O)[C@H](CC(C)C)NC(=O)CNC(=O)[C@H](Cc1c[nH]cn1)NC(=O)[C@@H]1CCCN1C(=O)CNC(=O)[C@H](Cc1ccccc1)NC(=O)[C@H](CC(=O)O)NC(=O)[C@H](Cc1c[nH]c2ccccc12)NC(=O)[C@H](C)NC(=O)[C@@H](NC(=O)[C@H](C)N)[C@@H](C)O)[C@@H](C)CC)[C@@H](C)CC)C(=O)N[C@@H](CCCNC(=N)N)C(=O)N1CCC[C@H]1C(=O)N[C@@H](CC(C)C)C(=O)N[C@@H](CS)C(=O)NCC(=O)N[C@@H](CCCCN)C(=O)N[C@@H](CC(=O)O)C(=O)O | Escherichia coli | – | – | – | – | MIC | > 128 µM |
| CCCCCC(=O)NC(C(=O)NCc1ccc(NC(=N)N)cc1)c1ccc(OCc2ccccc2)cc1 (centres unmarked) | dengue virus 2 | viral replication | New Guinea C | – | – | EC50 | 890 nM |
| CCN(CC)CC#CCNc1ccnc2cc(Cl)ccc12 | Plasmodium falciparum | parasite growth, SYBR Green I | K1 | – | reference: IC50 K1 over IC50 3D7 | resistance index | 1.1 |
| O=C(NCCN1CCCC2=CC3CC(CN4CCCCC34)C21)c1ccc(OC(F)(F)F)cc1 (centres unmarked) | HIV-1 NL4-3 Nanoluc | viral replication | MT-4 | – | – | IC50 | > 40000 nM |
| CCC(=O)OC1C(=O)C2(C)C(O)CC3OCC3(OC(C)=O)C2C(OC(=O)c2cccc(OC(F)F)c2)C2(O)CC(OC(=O)C(O)C(C=C(C)C)NC(=O)OC(C)(C)C)C(C)=C1C2(C)C (centres unmarked) | LCC6-WT | cytotoxicity | – | – | – | IC50 | 0.56 nM |
| C[C@H](N)C(=O)N[C@@H](CO)C(=O)N[C@@H](C)C(=O)N[C@H]1CSC(=O)[C@H](Cc2ccccc2)NC(=O)[C@H](Cc2ccc(O)cc2)NC(=O)[C@H](C)NC(=O)[C@H](C)NC1=O | Staphylococcus epidermidis | agr quorum sensing | agr groups I-III | 0.025 µM | – | inhibition | > 85% |
| COc1cc2c(cc1-n1ccnc1)C[C@H]1[C@H]3CCCC[C@@]23CCN1C | – | – | mouse liver microsomes | – | – | intrinsic clearance | 47.4 µL/min/mg protein |
| CCC(=O)OC1C(=O)C2(C)C(O)CC3OCC3(OC(C)=O)C2C(OC(=O)c2cccc(OC(F)(F)F)c2)C2(O)CC(OC(=O)C(O)C(C=C(C)C)NC(=O)OC(C)(C)C)C(C)=C1C2(C)C (centres unmarked) | LCC6-WT | cytotoxicity | – | – | – | IC50 | 0.71 nM |
| CC[C@H](C)[C@H](NC(=O)[C@H](CCCNC(=N)N)NC(=O)[C@@H]1CCCN1C(=O)[C@H](CCCNC(=N)N)NC(=O)[C@H](Cc1ccccc1)NC(=O)[C@H](Cc1c[nH]cn1)NC(=O)[C@H](CCCNC(=N)N)NC(=O)[C@H](CC(C)C)NC(=O)[C@H](CCCCN)NC(=O)CNC(=O)[C@H](CC(C)C)NC(=O)[C@H](Cc1ccccc1)NC(=O)[C@H](CCCNC(=N)N)NC(=O)CNC(=O)[C@H](Cc1ccccc1)NC(=O)[C@H](CCCNC(=N)N)NC(=O)CNC(=O)[C@H](CCCNC(=N)N)NC(=O)[C@H](CCC(N)=O)NC(=O)[C@@H](NC(=O)[C@@H](N)CC(C)C)[C@@H](C)CC)C(=O)N[C@@H](CCCCN)C(=O)N[C@@H](Cc1ccccc1)C(=O)N[C@@H](CCCCN)C(=O)NCC(=O)N[C@@H](CCCCN)C(=O)N[C@@H](C)C(=O)NCC(=O)N[C@@H](Cc1c[nH]c2ccccc12)C(=O)N[C@H](C(=O)N[C@H](C(=O)NCC(=O)O)C(C)C)[C@@H](C)O | Escherichia coli | – | – | – | – | MIC | 64 µM (≈ 242 µg/mL) |
| Cc1ccc(Cn2cc(C(=O)NCCOCCO)c(=O)c3cc(C(=O)/C=C/c4ccc([N+](=O)[O-])o4)ccc32)cc1 | Trypanosoma brucei brucei | parasite growth | – | – | – | EC50 | 80 nM |

Some of these lines once more:
| SMILES | target or system | assay | test system | conditions | how to read | quantity | result |
| --- | --- | --- | --- | --- | --- | --- | --- |
| CCCCCC(=O)NC(C(=O)NCc1ccc(NC(=N)N)cc1)c1ccc(OCc2ccccc2)cc1 (centres unmarked) | dengue virus 2 | viral replication | New Guinea C | – | – | EC50 | 890 nM |
| CCN(CC)CC#CCNc1ccnc2cc(Cl)ccc12 | Plasmodium falciparum | parasite growth, SYBR Green I | K1 | – | reference: IC50 K1 over IC50 3D7 | resistance index | 1.1 |
